Experimental data gathered from unrelated publications.
Compare with care: the assays were run in different laboratories. Several values in a cell are separate wells, animals, samples, runs or records. ± marks the error that the study gave.

| Compound | target | test | test system | setting | how to read | quantity | value |
| --- | --- | --- | --- | --- | --- | --- | --- |
| C[n+]1cc(/C=N/NC(=O)c2cc(C(=O)N/N=C/c3cc4ccccc4[n+](C)c3)ncn2)cc2ccccc21 | MYC parallel G4 DNA | FRET melting |  | 1 µM, DNA 0.2 µM |  | ΔTm | 4.6 ± 0.1 °C |
| Cc1cn(CC(=O)N(CC(=O)N[C@H]2CCC[C@@H]2N(CC(=O)N[C@H]2COC[C@@H]2N(CC(=O)N[C@H]2COC[C@@H]2N(CC(=O)N[C@H]2COC[C@@H]2N(CC(=O)NCCOCCOCC(N)=O)C(=O)Cn2cnc3c(N)ncnc32)C(=O)Cn2cc(C)c(=O)[nH]c2=O)C(=O)Cn2cnc3c(N)ncnc32)C(=O)Cn2cnc3c(=O)[nH]c(N)nc32)[C@H]2CCC[C@@H]2NC(=O)CN(C(=O)Cn2cnc3c(=O)[nH]c(N)nc32)[C@H]2CCC[C@@H]2NC(=O)CN(C(=O)Cn2cc(C)c(=O)[nH]c2=O)[C@H]2COC[C@@H]2NC(=O)CN(C(=O)Cn2cnc3c(N)ncnc32)[C@H]2COC[C@@H]2NC(=O)CN(C(=O)Cn2cnc3c(=O)[nH]c(N)nc32)[C@H]2COC[C@@H]2N)c(=O)[nH]c1=O | mismatched RNA TG | duplex formation, UV melting |  |  | reference: complementary RNA | ΔTm | -13.8 °C |
| CC(=O)NCCN(c1nc(N2CC(Oc3ccccc3)C2)nc(N2CC3C(CCOc4cc(-c5scnc5C)ccc4CNC(=O)[C@@H]4C[C@@H](O)CN4C(=O)[C@@H](NC(=O)C4(F)CC4)C(C)(C)C)C3C2)n1)C(C)C (stereo partly shown) | VHL-elongin C-elongin B and BRD9 | SPR | immobilized VHL-elongin C-elongin B |  | reference: binary KD over ternary KD | cooperativity alpha | 527 |
| C/C=C(/C)C(=O)OC[C@H]1[C@@H](Cc2ccc(C(C)(C)C)cc2)CO[C@@H]1c1ccc(OC)c(OC)c1 | NF-κB | reporter gene | HEK293/NF-κB-luc | 4 h, together with: TNFα 2 ng/mL |  | IC50 | ≥ 20 µM |
| Cc1cnc2nc1Nc1cccc(c1)COC/C=C/COCc1cc(ccc1OCCN1CCOCC1)N2 | FLT3 ITD | kinase binding panel |  | concentration not given |  | remaining binding | 7.9% |
| CCCCCC(O)/C=C/C=O (stereo not shown) | cysteine-reactive proteome | iodoacetamide probe labelling, competitive isoTOP-ABPP | MDA-MB-231, cell proteome |  |  | IC50 | 132 µM and 201 µM and 199 µM and 196 µM and 190 µM and 345 µM and 239 µM and 163 µM |
| CCN1CCN(Cc2ccc(C(=O)Nc3ccc(C)c(NCc4cnc5[nH]ccc5c4OC)c3)cc2C(F)(F)F)CC1 | FLT3 ITD | KINOMEscan |  | 1 µM | reference: control | remaining binding | 5% |
| C=CC(=O)Nc1cccc(Cn2ncc3cnc(Nc4cnn(CCOC)c4)nc32)c1 | MST1R human | binding, KINOMEscan |  | 100 nM | lower = stronger binding | percent of control | 100% |
| Fc1ccc(Nc2nc(NC3CCCCC3)c3cc(Br)ccc3n2)cc1F | β2AR/β1AR ECL2/3 chimera | β-arrestin2 recruitment, antagonist, BRET |  | together with: isoprenaline 1 µM |  | pIC50 | 7 |
| CCCCCCc1cccc(C(O)CC(CO)NC(=O)CCCCCCCCCCNC(C)=O)c1 (stereo not shown) | CERT | HPLC-MS/MS, measured: SM 24:1 | HeLa | 1 µM, 24 h |  | sphingomyelin level | 98600 pmol/sample and 114000 pmol/sample and 74800 pmol/sample |
| CC(=O)NCC1CCCCN1c1nc(NCCn2nnc(C)n2)nc(N2CC3C(CCOc4cc(-c5scnc5C)ccc4CNC(=O)[C@@H]4C[C@@H](O)CN4C(=O)[C@@H](NC(=O)C4(F)CC4)C(C)(C)C)C3C2)n1 (stereo partly shown) | VHL-elongin C-elongin B and BRD9 | SPR | immobilized VHL-elongin C-elongin B |  | reference: binary KD over ternary KD | cooperativity alpha | 11 |
| C[n+]1cc(/C=N/NC(=O)c2cncc(C(=O)N/N=C/c3cc4ccccc4[n+](C)c3)n2)cc2ccccc21 | MYC parallel G4 DNA | FRET melting |  | 1 µM, DNA 0.2 µM |  | ΔTm | 4.9 °C |
| Fc1ccc(Nc2nc(NC3CCCCC3)c3cc(C(F)(F)F)ccc3n2)cc1F | β2AR/β1AR ECL2/3 chimera | β-arrestin2 recruitment, antagonist, BRET |  |  | reference: isoprenaline maximal response | maximal inhibition | -2.9% |
| C=CC(=O)N1[C@@H](c2ccc3c(c2)OCO3)c2[nH]c3ccccc3c2C[C@H]1C(=O)N1CCN(C)CC1 | human cyclin E1 N112C-3xFLAG:CDK2 | co-IP with TMT proteomics, measured: NUP98 |  | concentration not given, P52948 | reference: wild type DMSO | relative co-enrichment | 114% |
| O=C(NCc1ccc2c(c1)CN(C(=O)c1cc(-c3ccccc3)no1)C2)C1C=CC=CC=C1 | FSP1 F15A mutant | resazurin reduction, inhibitor |  | pH 7.2, together with: 50 µM resazurin, NADH |  | IC50 | 1.07 ± 0.07 µM |
| C[n+]1cc(/C=N/NC(=O)c2ccc3ccc4ccc(C(=O)N/N=C/c5cc6ccccc6[n+](C)c5)nc4c3n2)cc2ccccc21 | MYC parallel G4 DNA | FRET melting |  | 1 µM, DNA 0.2 µM |  | ΔTm | 9.2 ± 0.8 °C |
| CC(=O)NCCN(CCC(=O)NCCN(CCC(=O)NCCN(CCC(=O)NCCC(N)=O)C(=O)[C@@H](N)Cc1ccccc1)C(=O)[C@@H](N)CCCNC(=N)N)C(=O)[C@@H](N)CCCNC(=N)N | HIV-1 TAR RNA | RNA thermal stability, UV melting |  | 1 µM, pH 7.5, together with: 1 µM TAR RNA |  | melting temperature | 60.1 ± 0.2 °C |
| O=C(N/N=C/c1cc[n+](Cc2ccccc2)c2ccccc12)N/N=C/c1cc[n+](Cc2ccccc2)c2ccccc12 | MYC parallel G4 DNA | FRET melting |  | 1 µM, DNA 0.2 µM, together with: duplex DNA competitor 10 µM |  | ΔTm | 4.4 ± 0.2 °C |
| Cc1ncsc1-c1ccc(CNC(=O)[C@@H]2C[C@@H](O)CN2C(=O)[C@@H](NC(=O)C2(F)CC2)C(C)(C)C)c(OCCC2CN(c3nc(NCC(C)(C)C4(O)CCOC4)nc(N4CCC[C@H]4Cn4ccnn4)n3)C2)c1 (stereo partly shown) | VHL-elongin C-elongin B and BRD9 | SPR | immobilized VHL-elongin C-elongin B |  | reference: binary KD over ternary KD | cooperativity alpha | 5 |
| C[n+]1ccc(/C=N/NC(=O)c2cc(C(=O)N/N=C/c3cc[n+](C)c4ccccc34)ncn2)c2ccccc21 | hp2 hairpin duplex DNA | FRET melting |  | 1 µM, together with: ds26 10 µM |  | ΔTm | 0.3 ± 0.3 °C |
| CCCCCCCCCCCC(=O)N[C@@H](CO)C[C@@H](O)c1cccc(CCCCCC)c1 | CERT | HPLC-MS/MS, measured: SM C16 | HeLa | 1 µM, 24 h |  | sphingomyelin level | 502000 pmol and 591000 pmol and 515000 pmol |
| O=C(N/N=C/c1ccc2c(ccc[n+]2Cc2ccccc2)c1)c1cccc(C(=O)N/N=C/c2ccc3c(ccc[n+]3Cc3ccccc3)c2)c1 | MYC parallel G4 DNA | FRET melting |  | 1 µM, DNA 0.2 µM |  | ΔTm | 8.5 ± 0.3 °C |
| O=C(CCCCCOc1ccc2ccccc2c1)N[C@@H](CO)C[C@@H](O)c1ccc(-c2ccccc2)cc1 | CERT | HPLC-MS/MS, measured: SM 24:1 | HeLa | 1 µM, 24 h |  | sphingomyelin level | 127000 pmol/sample and 148000 pmol/sample and 147000 pmol/sample |
| c1ccc(-c2n[nH]cc2-c2ccnc3ccccc23)nc1 | KIN28 (Candida albicans) | kinase binding, MIB/MS competition | Candida albicans lysate | 10 µM | reference: DMSO | log2 fold change | -0.04 |
| O=C(N/N=C/c1cc[n+](CC2CC2)c2ccccc12)C(=O)N/N=C/c1cc[n+](CC2CC2)c2ccccc12 | MYC parallel G4 DNA | FRET melting |  | 1 µM, DNA 0.2 µM |  | ΔTm | 3.1 ± 0.7 °C |
| O=C(Nc1ccccc1)c1ccc(Nc2nnc(-c3ccc(O)cc3)c3ccccc23)cc1 | TRPV1 | nocifensive response | mouse | intraplantar, 30 µg |  | licking time | 0 s |
| O=C(N/N=C/c1cc[n+](CC2CC2)c2ccccc12)N/N=C/c1cc[n+](CC2CC2)c2ccccc12 | MYC parallel G4 DNA | FRET melting |  | 1 µM, DNA 0.2 µM |  | ΔTm | 3.7 ± 0.9 °C |
| Nc1ncc(-c2cc(-c3cnn(CC(F)(F)F)c3)ncc2F)nc1C(=O)NC1CNCC(F)C1 (stereo not shown) | FGFR3 | KINOMEscan |  | 1 µM | reference: DMSO control | remaining binding | 91% |

For quick reference, copied from above:
| Compound | target | test | test system | setting | how to read | quantity | value |
| --- | --- | --- | --- | --- | --- | --- | --- |
| Fc1ccc(Nc2nc(NC3CCCCC3)c3cc(C(F)(F)F)ccc3n2)cc1F | β2AR/β1AR ECL2/3 chimera | β-arrestin2 recruitment, antagonist, BRET |  |  | reference: isoprenaline maximal response | maximal inhibition | -2.9% |
| C=CC(=O)N1[C@@H](c2ccc3c(c2)OCO3)c2[nH]c3ccccc3c2C[C@H]1C(=O)N1CCN(C)CC1 | human cyclin E1 N112C-3xFLAG:CDK2 | co-IP with TMT proteomics, measured: NUP98 |  | concentration not given, P52948 | reference: wild type DMSO | relative co-enrichment | 114% |
